Experimental data pooled from the literature.
Numbered parts are unrelated; each lists some results of a single study. Several values in a cell are separate wells, animals, samples, runs or records.
UniProt P11802, sequence (whole entry, looked up): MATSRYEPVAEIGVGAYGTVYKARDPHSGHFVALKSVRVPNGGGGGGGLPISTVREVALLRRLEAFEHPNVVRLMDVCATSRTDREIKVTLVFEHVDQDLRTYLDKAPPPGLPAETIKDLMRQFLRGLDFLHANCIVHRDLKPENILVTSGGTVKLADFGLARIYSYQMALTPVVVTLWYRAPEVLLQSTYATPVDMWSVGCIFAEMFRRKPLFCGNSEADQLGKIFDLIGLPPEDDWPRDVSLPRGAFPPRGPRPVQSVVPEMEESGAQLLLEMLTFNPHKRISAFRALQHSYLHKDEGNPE
UniProt P22607, sequence (whole entry, unmodified, looked up): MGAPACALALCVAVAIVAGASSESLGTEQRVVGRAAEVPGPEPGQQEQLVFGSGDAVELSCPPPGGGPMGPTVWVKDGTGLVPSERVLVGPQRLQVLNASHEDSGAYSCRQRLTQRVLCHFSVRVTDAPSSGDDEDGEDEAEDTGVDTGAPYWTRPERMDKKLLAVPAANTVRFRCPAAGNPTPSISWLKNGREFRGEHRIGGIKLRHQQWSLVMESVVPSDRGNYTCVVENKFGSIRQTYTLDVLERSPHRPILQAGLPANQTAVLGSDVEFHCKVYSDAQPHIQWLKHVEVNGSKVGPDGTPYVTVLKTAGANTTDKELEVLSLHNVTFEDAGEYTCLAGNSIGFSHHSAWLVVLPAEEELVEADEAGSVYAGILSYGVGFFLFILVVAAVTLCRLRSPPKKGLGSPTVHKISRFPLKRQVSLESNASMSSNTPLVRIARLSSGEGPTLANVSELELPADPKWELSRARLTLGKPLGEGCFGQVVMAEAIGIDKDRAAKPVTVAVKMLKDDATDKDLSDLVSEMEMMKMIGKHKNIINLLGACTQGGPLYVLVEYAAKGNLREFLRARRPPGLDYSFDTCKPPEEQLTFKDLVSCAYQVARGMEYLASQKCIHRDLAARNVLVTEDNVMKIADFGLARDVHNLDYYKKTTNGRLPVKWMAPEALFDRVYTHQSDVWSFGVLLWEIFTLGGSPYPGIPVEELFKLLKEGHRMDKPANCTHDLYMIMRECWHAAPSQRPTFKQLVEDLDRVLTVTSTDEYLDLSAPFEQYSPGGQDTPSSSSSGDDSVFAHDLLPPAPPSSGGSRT
UniProt P25098, sequence (whole entry, looked up): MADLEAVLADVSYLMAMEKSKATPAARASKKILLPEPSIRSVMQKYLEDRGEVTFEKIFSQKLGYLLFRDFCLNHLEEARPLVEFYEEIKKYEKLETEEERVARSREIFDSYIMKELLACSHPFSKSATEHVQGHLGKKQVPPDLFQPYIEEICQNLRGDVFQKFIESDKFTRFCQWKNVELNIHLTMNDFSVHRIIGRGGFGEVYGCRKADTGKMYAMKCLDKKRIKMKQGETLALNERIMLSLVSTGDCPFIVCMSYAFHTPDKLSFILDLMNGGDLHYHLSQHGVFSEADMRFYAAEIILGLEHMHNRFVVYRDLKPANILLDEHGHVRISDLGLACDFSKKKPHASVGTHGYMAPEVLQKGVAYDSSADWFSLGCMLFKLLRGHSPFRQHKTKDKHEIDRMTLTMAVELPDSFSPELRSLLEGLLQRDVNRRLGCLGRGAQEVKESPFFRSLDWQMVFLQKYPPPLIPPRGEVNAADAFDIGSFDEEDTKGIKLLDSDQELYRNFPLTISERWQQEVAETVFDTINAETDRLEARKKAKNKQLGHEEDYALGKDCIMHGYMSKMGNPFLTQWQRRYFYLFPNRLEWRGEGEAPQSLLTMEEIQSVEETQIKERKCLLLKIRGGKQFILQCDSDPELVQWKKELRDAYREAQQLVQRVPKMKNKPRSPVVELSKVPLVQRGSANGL
UniProt Q96L34, sequence (whole entry, looked up): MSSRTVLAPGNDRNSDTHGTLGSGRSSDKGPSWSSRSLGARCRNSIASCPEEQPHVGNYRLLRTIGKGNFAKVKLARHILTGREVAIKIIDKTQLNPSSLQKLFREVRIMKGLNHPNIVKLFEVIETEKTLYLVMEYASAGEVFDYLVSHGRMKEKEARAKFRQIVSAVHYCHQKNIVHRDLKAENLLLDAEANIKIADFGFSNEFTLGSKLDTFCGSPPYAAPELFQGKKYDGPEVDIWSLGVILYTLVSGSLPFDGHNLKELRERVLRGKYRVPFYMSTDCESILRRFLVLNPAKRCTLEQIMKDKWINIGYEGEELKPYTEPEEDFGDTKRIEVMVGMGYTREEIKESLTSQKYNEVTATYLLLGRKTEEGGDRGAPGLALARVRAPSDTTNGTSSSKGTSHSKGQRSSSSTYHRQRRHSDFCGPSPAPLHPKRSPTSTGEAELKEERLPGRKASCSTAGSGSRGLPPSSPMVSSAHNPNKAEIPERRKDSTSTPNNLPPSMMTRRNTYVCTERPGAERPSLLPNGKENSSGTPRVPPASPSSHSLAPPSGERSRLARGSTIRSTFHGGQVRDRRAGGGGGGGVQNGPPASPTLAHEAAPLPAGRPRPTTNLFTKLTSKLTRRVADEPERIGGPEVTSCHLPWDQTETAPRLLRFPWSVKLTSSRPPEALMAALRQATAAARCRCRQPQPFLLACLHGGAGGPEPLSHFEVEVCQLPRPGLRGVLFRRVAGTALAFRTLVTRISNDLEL
UniProt P27037, sequence (whole entry, looked up): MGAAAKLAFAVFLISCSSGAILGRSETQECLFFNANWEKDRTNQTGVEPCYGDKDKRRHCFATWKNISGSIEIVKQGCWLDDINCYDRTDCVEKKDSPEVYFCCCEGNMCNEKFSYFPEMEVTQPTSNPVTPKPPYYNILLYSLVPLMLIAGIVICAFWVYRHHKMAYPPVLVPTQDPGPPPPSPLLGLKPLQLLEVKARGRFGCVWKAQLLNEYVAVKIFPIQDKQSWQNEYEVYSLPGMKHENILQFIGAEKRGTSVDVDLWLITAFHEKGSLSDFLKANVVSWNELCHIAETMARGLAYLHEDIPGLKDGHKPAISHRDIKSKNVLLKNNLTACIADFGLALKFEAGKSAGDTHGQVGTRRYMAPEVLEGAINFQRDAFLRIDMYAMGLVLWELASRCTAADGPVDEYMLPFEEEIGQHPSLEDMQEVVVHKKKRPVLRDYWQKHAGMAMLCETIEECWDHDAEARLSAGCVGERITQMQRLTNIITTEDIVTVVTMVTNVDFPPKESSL
UniProt P00519, sequence (whole entry, unmodified, looked up): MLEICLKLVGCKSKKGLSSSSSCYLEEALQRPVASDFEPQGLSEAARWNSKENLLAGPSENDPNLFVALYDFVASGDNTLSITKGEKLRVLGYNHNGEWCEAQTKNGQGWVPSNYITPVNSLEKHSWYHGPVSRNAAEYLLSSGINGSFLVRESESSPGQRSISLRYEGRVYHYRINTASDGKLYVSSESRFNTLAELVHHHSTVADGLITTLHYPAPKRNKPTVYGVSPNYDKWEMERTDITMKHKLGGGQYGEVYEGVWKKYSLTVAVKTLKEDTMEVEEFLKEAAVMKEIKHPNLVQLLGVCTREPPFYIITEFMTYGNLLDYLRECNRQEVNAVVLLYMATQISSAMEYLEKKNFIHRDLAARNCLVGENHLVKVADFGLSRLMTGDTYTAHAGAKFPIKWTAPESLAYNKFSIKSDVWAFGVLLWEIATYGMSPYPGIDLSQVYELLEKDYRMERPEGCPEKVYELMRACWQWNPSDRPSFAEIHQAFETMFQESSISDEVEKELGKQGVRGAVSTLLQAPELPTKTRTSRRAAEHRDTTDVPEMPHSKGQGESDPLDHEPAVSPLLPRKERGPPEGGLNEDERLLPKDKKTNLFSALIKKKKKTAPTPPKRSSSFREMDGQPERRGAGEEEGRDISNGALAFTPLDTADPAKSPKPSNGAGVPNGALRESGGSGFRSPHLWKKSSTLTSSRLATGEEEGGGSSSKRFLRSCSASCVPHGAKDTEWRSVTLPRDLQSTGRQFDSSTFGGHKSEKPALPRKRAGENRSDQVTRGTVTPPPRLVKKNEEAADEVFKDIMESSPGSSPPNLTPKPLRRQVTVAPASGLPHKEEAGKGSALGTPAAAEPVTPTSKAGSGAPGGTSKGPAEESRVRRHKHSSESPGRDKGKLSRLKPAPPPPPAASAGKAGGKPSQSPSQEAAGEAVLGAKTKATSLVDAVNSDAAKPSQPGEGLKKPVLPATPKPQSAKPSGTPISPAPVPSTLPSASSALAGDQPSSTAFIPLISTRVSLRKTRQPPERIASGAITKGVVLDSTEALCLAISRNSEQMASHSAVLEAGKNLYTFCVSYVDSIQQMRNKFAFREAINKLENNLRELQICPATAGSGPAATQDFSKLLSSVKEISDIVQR
UniProt Q13554, sequence (whole entry, looked up): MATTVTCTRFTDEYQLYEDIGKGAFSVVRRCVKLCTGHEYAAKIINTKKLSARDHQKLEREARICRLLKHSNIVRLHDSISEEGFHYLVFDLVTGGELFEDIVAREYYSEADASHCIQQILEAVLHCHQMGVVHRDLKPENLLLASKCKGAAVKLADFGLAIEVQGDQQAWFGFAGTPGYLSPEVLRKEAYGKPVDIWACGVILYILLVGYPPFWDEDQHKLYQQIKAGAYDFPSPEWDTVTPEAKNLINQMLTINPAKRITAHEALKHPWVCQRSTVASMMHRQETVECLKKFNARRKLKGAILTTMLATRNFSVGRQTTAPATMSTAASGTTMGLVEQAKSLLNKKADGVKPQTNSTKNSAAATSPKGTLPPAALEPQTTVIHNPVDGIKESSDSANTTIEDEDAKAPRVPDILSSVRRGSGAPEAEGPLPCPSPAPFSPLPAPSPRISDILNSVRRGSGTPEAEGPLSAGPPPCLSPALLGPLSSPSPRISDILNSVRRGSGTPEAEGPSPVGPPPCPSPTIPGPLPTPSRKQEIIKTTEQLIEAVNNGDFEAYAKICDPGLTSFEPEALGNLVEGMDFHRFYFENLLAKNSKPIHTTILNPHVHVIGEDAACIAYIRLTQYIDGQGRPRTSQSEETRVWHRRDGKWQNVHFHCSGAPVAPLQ

Study 1
Read-out: AlphaScreen signal
Method: AlphaScreen counter screen
Sample: His6 peptide without bromodomain
Tested at: 50 µM
Notes: assay interference check
| SMILES | inhibition |
| --- | --- |
| Nc1ncc(-c2cccnc2)nc1-c1ccc(O)cc1 | 17.6% |
| N#CCNC(=O)c1ccc(-c2ccnc(Nc3ccc(N4CCOCC4)cc3)n2)cc1 | 20.2% |
| CCc1cc(Nc2nccc(-c3c(-c4ccc(OC)c(C(=O)Nc5c(F)cccc5F)c4)nc4ccccn34)n2)c(OC)cc1N1CCC(N2CCN(S(C)(=O)=O)CC2)CC1 | 32.2% |
| CC(C)[C@H](CO)Nc1nc(Nc2cccc(Cl)c2)c2ncn(C(C)C)c2n1 | 49.1% |
| Cc1ccc(NC(=O)c2ccc(CN3CCN(C)CC3)cc2)cc1Nc1nccc(-c2cccnc2)n1 | 26.2% and 17.9% |

Study 2
Cell line: Huh-7
Tested at: 10 µM
Time: 24 h
| Compound | viability |
| --- | --- |
| CCC(=O)NCC[C@@H]1CCc2ccc3c(c21)CCO3 | 114% |
| c1ccc([C@H]2CN3CCSC3=N2)cc1 | 103% |
| COc1ccc(NS(=O)(=O)c2ccc(N)cc2)nn1 | 95.1% |
| C[C@]12CC[C@@H]3c4ccc(O)cc4CC[C@H]3[C@@H]1CC[C@@H]2OC(=O)CCC1CCCC1 | 88.5% |

Study 3
SMILES: CCC(=O)N[C@@H]1CC[C@H](C(=O)N(C)c2ccc(-c3nc4ccccc4o3)cc2)C1
Tested at: 1 µM
| target | test | remaining binding |
| --- | --- | --- |
| Mitotic checkpoint serine/threonine-protein kinase BUB1 (BUB1, Homo sapiens, UniProt O43683) | cell-free assay, competition with immobilised ligand | 89% |
| Beta-adrenergic receptor kinase 1 (GRK2, Homo sapiens, UniProt P25098) | cell-free assay, competition with immobilised ligand | 100% |
| Fibroblast growth factor receptor 3 (FGFR3, Homo sapiens, UniProt P22607, G697C) | cell-free assay, competition with immobilised ligand | 88% |
| Serine/threonine-protein kinase MRCK gamma (CDC42BPG, Homo sapiens, UniProt Q6DT37) | competition binding | 100% |
| G protein-coupled receptor kinase 3 (GRK3, Homo sapiens, UniProt P35626) | cell-free assay, competition with immobilised ligand | 100% |
| Tyrosine-protein kinase ABL1, phosphorylated (ABL1, Homo sapiens, UniProt P00519, E255K) | binding, competition with immobilised ligand | 100% |
| Serine/threonine-protein kinase 24 (STK24, Homo sapiens, UniProt Q9Y6E0) | cell-free assay, competition with immobilised ligand | 100% |
| LIM domain kinase 1 (LIMK1, Homo sapiens, UniProt P53667) | cell-free assay, competition with immobilised ligand | 100% |
| Serine/threonine-protein kinase MRCK beta (CDC42BPB, Homo sapiens, UniProt Q9Y5S2) | cell-free assay, competition with immobilised ligand | 100% |
| cAMP-dependent protein kinase catalytic subunit PRKX (PRKX, Homo sapiens, UniProt P51817) | cell-free assay, competition with immobilised ligand | 100% |
| MAP/microtubule affinity-regulating kinase 4 (MARK4, Homo sapiens, UniProt Q96L34) | cell-free assay, competition with immobilised ligand | 82% |
| Activin receptor type-2A (ACVR2A, Homo sapiens, UniProt P27037) | cell-free assay, competition with immobilised ligand | 100% |
| Receptor-type tyrosine-protein kinase FLT3 (FLT3, Homo sapiens, UniProt P36888, N841I) | cell-free assay, competition with immobilised ligand | 100% |
| Transient receptor potential cation channel subfamily M member 6 (TRPM6, Homo sapiens, UniProt Q9BX84) | cell-free assay, competition with immobilised ligand | 84% |
| Receptor-type tyrosine-protein kinase FLT3 (FLT3, Homo sapiens, UniProt P36888, R834Q) | cell-free assay, competition with immobilised ligand | 100% |
| Serine/threonine-protein kinase STK11 (STK11, Homo sapiens, UniProt Q15831) | cell-free assay, competition with immobilised ligand | 51% |
| Cyclin-dependent kinase 4 (CDK4, Homo sapiens, UniProt P11802) | cell-free assay, competition with immobilised ligand | 97% |
| Mast/stem cell growth factor receptor Kit (KIT, Homo sapiens, UniProt P10721) | cell-free assay, competition with immobilised ligand | 100% |

Study 4
Structure (SMILES): CO[C@@H]1[C@H](N(C)C(=O)c2ccccc2)C[C@H]2O[C@]1(C)n1c3ccccc3c3c4c(c5c6ccccc6n2c5c31)C(=O)NC4
Read-out: enzyme activity
Mode: inhibitor
Tested at: 1 µM
| target | inhibition [%] |
| --- | --- |
| cAMP-dependent protein kinase catalytic subunit beta (PRKACB, Homo sapiens, UniProt P22694) | 68 |
| Calcium/calmodulin-dependent protein kinase type II subunit beta (CAMK2B, Homo sapiens, UniProt Q13554) | 81 |
| Serine/threonine-protein kinase 38-like (STK38L, Homo sapiens, UniProt Q9Y2H1) | 0 |
| Cyclin-dependent kinase 4 (CDK4, Homo sapiens, UniProt P11802) | 11 |

Study 5
Species: mouse
Sample: microsomes or S9
Tested at: 2 µM
Time: 0.5 h
| SMILES | remaining compound |
| --- | --- |
| Cc1ccc(C2=C(c3ccccc3)c3cc(OCCN4CCN(S(C)(=O)=O)CC4)ccc3C2=O)cc1 | 46.6% |
| Cc1ccc(S(=O)(=O)N2CCN(c3ncnc4c3nnn4Cc3ccccc3)CC2)cc1 | 1.41% |
| O=C(Cc1cc(Br)ccc1F)OCCNC(=O)c1cccnc1 | 1.81% |
| CC(C)(C)C(=O)/C=C1\NCCN\C1=C/C(=O)C(C)(C)C | 9.6% |
| Cc1noc(C)c1CCNc1ncnc2onc(-c3cccc(Cl)c3)c12 | 88.4% |

Single results of other studies
| Compound | system | setting | how to read | measurement | result |
| --- | --- | --- | --- | --- | --- |
| CC(=O)N[C@@H](Cc1c[nH]c2ccccc12)C(=O)N[C@@H](CCC(=O)C=[N+]=[N-])C(=O)OC(C)C | C57BL/6 CES1-/- mice, MC-38 tumour | dose not given, day 75 after inoculation, together with: anti-PD-1 | baseline: initial | body weight | 105% and 104% |

For quick reference, copied from above (study 2):
| Compound | viability |
| --- | --- |
| CCC(=O)NCC[C@@H]1CCc2ccc3c(c21)CCO3 | 114% |
| c1ccc([C@H]2CN3CCSC3=N2)cc1 | 103% |
| COc1ccc(NS(=O)(=O)c2ccc(N)cc2)nn1 | 95.1% |
| C[C@]12CC[C@@H]3c4ccc(O)cc4CC[C@H]3[C@@H]1CC[C@@H]2OC(=O)CCC1CCCC1 | 88.5% |
